Experimental data gathered from unrelated publications.
Protocols differ between the studies behind these lines.
Target: Uncharacterized serine/threonine-protein kinase SBK3 (SBK3, Homo sapiens, UniProt P0C264)

Compound	effect on	method	concentration	relative to	remaining binding [%]
C=CC(=O)N1CCc2ccc(-n3c(=O)ccc4cnc5ccc(-c6cnn(C)c6)cc5c43)cc21		KINOMEscan	1 µM	DMSO control	100
COc1cc(Nc2nccc(-c3cnn4nc(OC)ccc34)n2)cc(C(F)(F)F)c1	binding	competition with immobilised ligand	1 µM		100
C=CC(=O)N1CCCC(n2c(=O)c3ncccc3n(Cc3ccc(Oc4ccccc4)cc3)c2=O)C1 (stereo not shown)	cell-free assay	competition with immobilised ligand	1 µM		83
CNC(=O)C1CCN(c2cc(C)c(F)cc2NC(=O)c2ccc(-c3cc(O)ccc3C)c(C)c2)CC1	binding	competition with immobilised ligand	1 µM		95
Cc1cnc2nc1Nc1cccc(c1)COC/C=C/COCc1cc(ccc1OCCN1CCOCC1)N2	binding	competition with immobilised ligand	0.1 µM		100
COc1cc(Nc2nc(C)cc(-c3cnn4nc(OC)ccc34)n2)cc(C(F)(F)F)c1	binding	competition with immobilised ligand	1 µM		87
Cc1c[nH]c2nccc(-c3ccc(C(=O)N[C@@H]4c5c(F)cc(C(F)F)cc5C[C@@H]4O)cn3)c12	binding	competition with immobilised ligand	3 µM		23
CNC1C[S+]2CC[S+]3CC[S+](C1)[Ru-4]321([N]=C=S)[n]2c3ccc(OC)cc3c3c4c(c5cc(F)c[n+]1c5c32)C(=O)NC4=O (stereo not shown)		KinomeScan	0.1 µM	untreated	94
CC(C)=CC1OC(C)(C)C2C=C3C(=O)C(Cl)=CC(O)C3C3C(O)C4OC4C(=O)C132 (stereo not shown)	cell-free assay	competition with immobilised ligand	10 µM		100
Cc1ccc(-c2c(/C=C(\C#N)C(=O)NC(C)C)n(CCCO)c3ncnc(N)c23)cc1	cell-free assay	competition with immobilised ligand	1 µM		95
COc1c(Cl)cccc1Nc1c(-c2ccncc2C#C[C@@]2(C)CCCN2C(=O)/C=C/CN(C)C)[nH]c2c1C(=O)NCC2	binding	competition with immobilised ligand	3 µM		92
CCN1CCN(Cc2ccc(C(=O)Nc3ccc(C)c(NCc4cnc5[nH]ccc5c4OC)c3)cc2C(F)(F)F)CC1	binding	competition with immobilised ligand	1 µM		100
Nc1ncc2c(n1)-c1c([nH]c3ccc(C4=CCOCC4)cc13)CCC2	binding	competition with immobilised ligand	1 µM		100

A few entries again:
Compound	effect on	method	concentration	relative to	remaining binding [%]
CNC1C[S+]2CC[S+]3CC[S+](C1)[Ru-4]321([N]=C=S)[n]2c3ccc(OC)cc3c3c4c(c5cc(F)c[n+]1c5c32)C(=O)NC4=O (stereo not shown)		KinomeScan	0.1 µM	untreated	94
CC(C)=CC1OC(C)(C)C2C=C3C(=O)C(Cl)=CC(O)C3C3C(O)C4OC4C(=O)C132 (stereo not shown)	cell-free assay	competition with immobilised ligand	10 µM		100
